Assay results collected from several papers.
Lines come from different studies, so protocols differ.
Target: Casein kinase I isoform gamma-1 (CSNK1G1, Homo sapiens, UniProt Q9HCP0)
Sequence of UniProt Q9HCP0 (whole entry, looked up): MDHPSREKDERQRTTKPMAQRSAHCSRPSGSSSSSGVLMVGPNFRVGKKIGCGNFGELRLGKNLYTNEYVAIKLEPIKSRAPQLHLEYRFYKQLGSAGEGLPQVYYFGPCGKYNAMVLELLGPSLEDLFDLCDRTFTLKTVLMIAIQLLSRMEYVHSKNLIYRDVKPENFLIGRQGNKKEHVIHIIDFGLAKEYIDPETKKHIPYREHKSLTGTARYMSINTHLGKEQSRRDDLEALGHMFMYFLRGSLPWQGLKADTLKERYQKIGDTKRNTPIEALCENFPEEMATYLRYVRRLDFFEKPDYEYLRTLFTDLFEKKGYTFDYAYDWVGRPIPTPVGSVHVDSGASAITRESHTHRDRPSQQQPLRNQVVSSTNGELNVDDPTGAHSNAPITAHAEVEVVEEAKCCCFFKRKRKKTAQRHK

The remaining binding of `C=CC(=O)N1CCC(C(=O)NCC(=O)N2CCN(c3nc(-c4cnc(N)nc4C(F)F)nc(N4CCOCC4)n3)CC2)CC1` is reported as 99% (KINOMEscan; 1 µM).
`C[C@@H](c1ccc(-n2cnc3c(N)ncnc32)cc1)N1CCc2nn(C)c(Cc3ccccc3)c2C1=O` has a remaining binding of 95% (KINOMEscan; 0.1 µM; relative to: DMSO control).
The remaining activity of `CCN(CC)c1ccc(C2=NNC(=O)CC2C)cc1[N+](=O)[O-]` (stereo not shown) is reported as 107% (enzyme activity, inhibitor; 10 µM; relative to: vehicle).
For `COc1cc(F)ccc1-c1ncnc(Nc2cccc(C[S@](C)(=N)=O)c2)n1`, the remaining activity was 99% (kinase activity; 10 µM, together with: 10 µM ATP).
`C=CC(=O)N1CCC(COCC(=O)N2CCN(c3nc(-c4cnc(N)nc4C(F)F)nc(N4CCOC[C@@H]4C)n3)CC2)CC1` has a remaining binding of 100% (KINOMEscan; 1 µM; relative to: DMSO control).
`C1=C/COCc2cc(ccc2OCCN2CCCC2)Nc2nccc(n2)-c2cccc(c2)COC/1`: “percent of control” 72% (concentration not given).
With `CCCOc1ccc(OC)c(F)c1C(=O)c1ccc(C(=O)N[C@@H]2CNC[C@H]2NC(=O)c2ccc3[nH]ncc3c2)cc1` the remaining activity was 55% (enzyme activity; 10 µM).
With `O=C(NC1CCC1)c1ccc2nc(-c3cccc(NS(=O)(=O)NCCN4CCCCC4)c3)cn2c1` the remaining activity was 95% (enzyme activity; 10 µM).
The remaining activity of `Cc1cc(Nc2cc(N3CCN(C)CC3)nc(Sc3ccc(NC(=O)C4CC4)cc3)n2)[nH]n1` is reported as 105% (kinase activity, KinaseProfiler; 0.03 µM, species human; relative to: control).
With `COc1cc(-c2cncc3c2CN(C)Cc2cc(N4CCNCC4)ccc2-3)cc(OC)c1OC` the remaining activity was 96% (kinase activity; 1 µM, human enzyme, together with: ATP 10 µM; relative to: DMSO control).

Some of these lines once more:
The remaining activity of `CCN(CC)c1ccc(C2=NNC(=O)CC2C)cc1[N+](=O)[O-]` (stereo not shown) is reported as 107% (enzyme activity, inhibitor; 10 µM; relative to: vehicle).
`C1=C/COCc2cc(ccc2OCCN2CCCC2)Nc2nccc(n2)-c2cccc(c2)COC/1`: “percent of control” 72% (concentration not given).
